# Assay results from different studies.
# Lines come from different studies, so protocols differ. “And” joins repeats or separate records; there may be more than shown. ± gives the spread as reported.
SMILES,assay,system,conditions,how to read,measurement,value
O=C(O)CCC(=O)O.[2H]C([2H])([2H])Oc1cc(C)c2[nH]ccc2c1CN1CC[C@@H](C2CC2)C[C@H]1c1ccc(C(=O)O)cc1,multiple ascending dose,healthy Chinese subjects,125 mg twice daily,,subjects with elevated ALT TEAE,0%
NS(=O)(=O)c1cc(C(=O)O)c(NCc2ccco2)cc1Cl,item: diarrhoea,healthy men,"oral, 8 days, treatment-emergent, crossover trial",,subjects with adverse event,0%
FC(F)(F)c1ccc(CNc2ccc(Cc3c[nH]c4ncc(Cl)cc34)cn2)cn1,,patients with advanced solid tumours,"oral, 1000 mg/day, TGCT cohort, grade ≥3",,cognitive disorder incidence,0%
CCN1/C(=C/C(C)=O)Sc2ccc(F)cc21,,cynomolgus monkey,"oral, 30 mg/kg, 4 h post-dose",,diastolic blood pressure,75 ± 3 mmHg
CC(C)[C@H](C(=O)Nc1ccc(C(=O)NO)cc1)c1ccccc1,,whole blood,"10.0 ng/mL, 5 h, 4 °C, stability on ice",,accuracy,109%
C[C@@H](Oc1ccc(S(C)(=O)=O)cc1C(=O)N1C[C@@H]2C[C@]2(c2cc(C(F)(F)F)on2)C1)C(F)(F)F,,"young healthy humans, plasma and urine","oral, 25 mg, 0 to 24 h, multiple dosing once daily",,renal clearance at steady state,3.77 mL/min
COc1cccc(OC)c1-c1cc(C(=O)NC2(C(=O)O)C3CC4CC(C3)CC2C4)nn1-c1ccc(C(=O)N(C)CCCN(C)CCCN(C)C(=O)CN2CCN(CC(=O)[O-])CCN(CC(=O)[O-])CCN(CC(=O)[O-])CC2)cc1C(C)C.[177Lu+3] (centres unmarked),,"mouse, HT-29 xenograft, spleen",24 h post injection,,tissue uptake,0.19 %ID/g
Cc1nc(-c2ccc(OCC(C)C)c(C#N)c2)sc1C(=O)O,,"healthy Chinese subjects, fasted","oral, 40 mg single dose",,subjects with dizziness,2.6%
CCc1cc(C(=O)NC)c2nccc(N3CCc4c(cc(Cn5ccnc5)cc4-c4cn(C)nc4C(F)(F)F)C3=O)c2c1,item: DBIL,Sprague Dawley rat,"oral, 50 mg/kg once daily, 7 days",relative to: vehicle,change in clinical chemistry or haematology parameter,0%
CCCCC[C@H](O)CC[C@@H]1[C@H]2Cc3cccc(OCC(=O)O)c3C[C@H]2C[C@H]1O,LC-MS/MS,"male Japanese PAH patients, plasma","inhaled, 54 µg",,geometric mean AUC(0-last),0.84 ng·h/mL
COc1ncc(-c2nc3c(n2C(C)C)[C@H](c2ccc(Cl)cc2)N(c2cc(Cl)cn(C)c2=O)C3=O)c(OC)n1,LC-MS/MS,"human, plasma","oral, 1 mg, cycle 1 day 14, low-dose arm",,Cmax,14.9 ng/mL
CCC(C)n1ncn(-c2ccc(N3CCN(c4ccc(OCC5COC(Cn6cncn6)(c6ccc(Cl)cc6Cl)O5)cc4)CC3)cc2)c1=O (centres unmarked),,"human, plasma","oral, dose not given, day 17 predose, geometric mean",,trough plasma concentration,171 ng/mL
CC(C)n1c(Nc2cccnc2)nc2cnc(Nc3ccc(N4CCN(C)CC4)cc3)nc21,item: nausea,healthy male subjects,"oral, 100 mg, study, added: gemfibrozil",,subjects with adverse event,7.1%
CCc1c(-c2ccccc2)c(-c2ccccc2)nn1-c1ccccc1-c1cccc(OCC(=O)O)c1,,"male Sprague-Dawley rat, testis homogenate","oral, 10 mg/kg, 1 h",,concentration,36.7 ng/mL
NCCONC(=O)[C@@H]1CC[C@@H]2CN1C(=O)N2OS(=O)(=O)O,,"human male, urine","intravenous infusion, 2 g single dose",,amount excreted in urine (0-8 h),1430 mg
CCn1c(=O)c(-c2cc(NC(=O)Nc3ccccc3)c(F)cc2Br)cc2cnc(NC)cc21,item: gastrointestinal disorders,"healthy human, matched to severe hepatic impairment","oral, 50 mg single dose",,participants with drug-related TEAE,0%
COc1ccc2c(=O)n(C)c(-c3ccccc3)nc2c1,,"Sprague-Dawley rat, male, heart/plasma","oral, 30 mg/kg, 2 h",relative to: heart over plasma,tissue/plasma ratio,0.76
COc1cc2c3c(n(CCCN4CCOCC4)c(=O)c2cc1OC)-c1cc2c(cc1C3=O)OCO2,,"beagle dog, male, plasma","intravenous infusion, 50 mg/m^2, 1 h infusion, vehicle 1",,t1/2,6.6 ± 1.7 h
Cc1c(-c2ccc(N3CCc4cccc(C(=O)Nc5nc6ccccc6s5)c4C3)nc2C(=O)O)cnn1CC12CC3(C)CC(C)(C1)CC(OCCNCC[C@H](O)CO)(C3)C2,,"beagle dog, anaesthetised","intravenous infusion, 0.1 mg/kg/min, 135 min",relative to: baseline,mean arterial pressure change,-9 mmHg
c1ccc2c(c1)ccc1c3ccccc3ccc21,,PDMS-water partitioning,PAH compilation,relative to: maximum over minimum K,literature range factor,9
CC(C)(C(=O)N1CCOc2c(C#N)cncc2C1)C(F)F,,"human, both sexes","oral, 10 mg single dose",,subjects with keratitis TEAE,0%
Cc1nc2cccc(OCC(C)(C)C(=O)NC(C)C)c2c(N)c1C(=O)O,,"male Swiss albino CD-1 mouse, bone marrow","oral, 2000 mg/kg, 36 h",,PCE/NCE ratio,0.9
CC(C)C[C@H](NC(=O)[C@H](CC(C)C)NC(=O)[C@H](Cc1c[nH]c2ccccc12)NC(=O)[C@H](CCC(=O)O)NC(=O)[C@@H](NC(=O)[C@H](Cc1ccccc1)NC(=O)[C@H](CCC(=O)O)NC(=O)[C@H](CCCCNC(=O)COCCOCCNC(=O)COCCOCCNC(=O)CC[C@H](NC(=O)CCCCCCCCCCCCCCCCCCC(=O)O)C(=O)O)NC(=O)[C@H](C)NC(=O)[C@H](CCCCN)NC(=O)[C@H](CCCCN)NC(=O)[C@H](CCC(=O)O)NC(=O)[C@H](CC(=O)O)NC(=O)[C@H](CC(C)C)NC(=O)[C@H](Cc1ccc(O)cc1)NC(=O)[C@H](CCCCN)NC(=O)[C@H](CO)NC(=O)[C@H](Cc1ccc(O)cc1)NC(=O)[C@H](CC(=O)O)NC(=O)[C@H](CO)NC(=O)[C@@H](NC(=O)[C@H](Cc1ccccc1)NC(=O)[C@@H](NC(=O)CNC(=O)[C@H](CCC(N)=O)NC(=O)C(C)(C)NC(=O)[C@@H](N)Cc1c[nH]cn1)[C@@H](C)O)[C@@H](C)O)C(C)C)C(=O)N[C@@H](CCC(=O)O)C(=O)NCC(=O)NCC(=O)N1CCC[C@H]1C(=O)N[C@@H](CO)C(=O)N[C@@H](CO)C(=O)NCC(N)=O,,"human, plasma","subcutaneous, 16 mg weekly, week 20",,Vss/F,6.4 L
CNC(=O)c1cc(Oc2ccc(NC(=O)Nc3ccc(Cl)c(C(F)(F)F)c3)c(F)c2)cc[n+]1[O-],short-term stability,mouse plasma,"75 ng/mL, 8 h, room temperature",,accuracy,103%
CN(CC#N)C(=O)C[C@H](Nc1nc2ccccc2[nH]1)c1cccc(C(F)(F)F)c1,,human,"intravenous infusion, 2 mg/kg, 10 mg/mL formulation",,apparent volume of distribution,81.9 ± 34.1 L
COc1ccc([C@@H](O)c2cc(-c3ncnc4cc(N5CCOCC5)ccc34)c(F)cc2Cl)nn1,mixed model,"healthy volunteers, plasma","oral, 100 mg, high-fat fed tablet test arm",,AUC(0-t) geometric LS mean,1280 ng·h/mL
CCCC(CCC)C(=O)Oc1cccc(C(O)CCN)c1.O=CO (centres unmarked),,"Abca4-/-Rdh8-/- mice, photic damage","oral, 20 mg/kg, 7 days, flash intensity 0.01",,"ERG, scotopic, rod b-wave",82.7 µV and 93.5 µV and 65.6 µV and 85.6 µV and 58.2 µV and 70.9 µV
O=C(O)c1cc(O)c(O)c(O)c1,,"rat, plasma","oral, 500 mg/kg extract",,apparent oral clearance,207 ± 12.3 L/h
O=C(O)C1=CO[C@@H](O[C@@H]2O[C@H](CO)[C@@H](O)[C@H](O)[C@H]2O)[C@@H]2C(CO)=CC[C@H]12,post-procedure stability,rat plasma,"200 ng/mL, 1 h, room temperature",,accuracy,103%
CN(C(=O)n1cnc(-c2cccnc2)c1)[C@H]1CC[C@H](O)CC1,,"rat, cerebellum","oral, 10 mg/kg single dose, 4 h",,tissue concentration,33 ± 8 ng/g
CC(C(=O)NCC(=O)NCC(CNC(=O)CNC(=O)C(C)N1CCN(CC(=O)[O-])CCN(CC(=O)[O-])CCN(CC(=O)[O-])CC1)(CNC(=O)CNC(=O)C(C)N1CCN(CC(=O)[O-])CCN(CC(=O)[O-])CCN(CC(=O)[O-])CC1)CNC(=O)CNC(=O)C(C)N1CCN(CC(=O)[O-])CCN(CC(=O)[O-])CCN(CC(=O)[O-])CC1)N1CCN(CC(=O)[O-])CCN(CC(=O)[O-])CCN(CC(=O)[O-])CC1.[Gd+3].[Gd+3].[Gd+3].[Gd+3] (centres unmarked),,cynomolgus monkey,day 5,relative to: skin over brain,Gd concentration ratio,~10 fold
CO[C@H]1CC[C@H](N2C(=O)CNc3ncc(-c4ccc(C(C)(C)O)nc4)nc32)CC1,,"patients, plasma","oral, 7.5 mg, day 15, geometric mean",,AUC(0-t),179 ng·h/mL
CNCCOC12CC3(C)CC(C)(CC(Cn4ncc(-c5ccc(N6CCc7cccc(C(=O)Nc8nc9ccccc9s8)c7C6)nc5C(=O)O)c4C)(C3)C1)C2,,anaesthetised male beagle dogs,"intravenous bolus, 0.03 mg/kg, 90 min",relative to: baseline,cardiac output change,-29%
CNC(=O)c1cc(Oc2ccc(NC(=O)Nc3cc(C(C)(C)C)nn3-c3ccc4ncccc4c3)c(F)c2)ccn1,item: worst grade 3,human,"oral, dose not given, cycles 1 and 2, Medium Cmax subgroup",,patients with any AE of special interest,27%
CC(C)NCCCC[C@@H]1NC(=O)[C@H](Cc2ccc(O)cc2)NC(=O)[C@H](Cc2ccccc2)NC(=O)CC[C@H](C(=O)N[C@@H](CCCCNC(C)C)C(=O)N[C@@H](CCCCNC(=O)[C@H](CCC(=O)O)NC(=O)[C@H](CCC(=O)O)NC(=O)[C@H](CCC(=O)O)NC(=O)CN2CCN(CC(=O)O)CCN(CC(=O)O)CCN(CC(=O)O)CC2)C(N)=O)NC(=O)CNC(=O)[C@H](Cc2ccc3ccccc3c2)NC(=O)[C@@H](CCCNC(=N)N)NC1=O [gallium-68 labelled],,"mouse with PC-3 xenograft, stomach","intravenous, 1 h",,tissue uptake,0.1 %ID/g
COc1ccc2[nH]c([S+]([O-])Cc3ncc(C)c(OC)c3C)nc2c1 (centres unmarked),,"healthy Chinese volunteers, plasma","oral, 20 mg, fed, CYP2C19 poor metabolizers",,AUC(0-inf),3630 ± 1200 ng·h/mL
O=C(Nc1nc2cccc(-c3ccc(CN4CCS(=O)(=O)CC4)cc3)n2n1)C1CC1,item: renal and urinary disorders,rheumatoid arthritis patients,"oral, 75 mg once daily, 4 weeks, any relatedness",,treatment-emergent adverse events,0%
C[Si](C)(C)O[Si](C)(C)O[Si](C)(C)O[Si](C)(C)C,,octanol/water,,,octanol-water partition coefficient,1.38e+08
